# Assay results pooled from the literature.
# Compare with care: the assays were run in different laboratories.
SMILES,system,conditions,concentration
COc1ccc(S(=O)(=O)N2CCc3ccccc3C2)cc1N1CCN(C(=O)c2ccc(F)cc2C(F)(F)F)CC1,"rat, brain","intravenous, 10 mg/kg, 30 min, single dose",250 ng/g
CN(C1COC1)C(C)(C)/C=C(\C#N)C(=O)N1CCC[C@H]1Cn1nc(-c2ccc(Oc3ccccc3)cc2F)c2c(N)ncnc21,"female Sprague-Dawley rat, plasma","oral, 40 mg/kg, 6 h",24 ng/mL
Cc1cc(/C=C2\CN(C(C)C)C/C(=C\c3cc(C)c(O)c(C)c3)C2=O)cc(C)c1O,"female Sprague-Dawley rat, plasma","intravenous, 20 mg/kg, 8 h",110 ng/mL
O=c1c2cc(Cl)ccc2sc2c(NCc3ccccc3)nc3ccccc3c12,"male Sprague-Dawley rat, plasma","intravenous, 3 mg/kg, 5 min, single dose",1440 ng/mL
C[Si]1(C[C@H](CN)CC(=O)O)CCCC1,"male Sprague-Dawley rat, brain","oral, 30 mg/kg, 1 h, single dose",4 µM
Cc1nc(N[C@@H](C)c2ccc(-c3nc(C4CC4)no3)cc2)c2cc(C)oc2n1,"rat, plasma","oral, 10 mg/kg, 24 h",0.565 µM
[2H]C([2H])([2H])C(c1cc2nnc(-c3cc(F)ccc3F)n2nc1OCc1ncnn1C)(C([2H])([2H])[2H])C([2H])([2H])[2H],"Wistar rat, plasma","oral, 6 mg/kg, 2 h",487 ng/mL
C[Si](C)(C)C[C@H](CN)CC(=O)O,"male Sprague-Dawley rat, brain","oral, 30 mg/kg, 1 h, single dose",5.1 µM

# For quick reference, copied from above:
SMILES,system,conditions,concentration
Cc1cc(/C=C2\CN(C(C)C)C/C(=C\c3cc(C)c(O)c(C)c3)C2=O)cc(C)c1O,"female Sprague-Dawley rat, plasma","intravenous, 20 mg/kg, 8 h",110 ng/mL
